Results from different studies.
Numbered parts are unrelated; each lists some results of a single study.
Sequence of UniProt Q13164 (whole entry, looked up): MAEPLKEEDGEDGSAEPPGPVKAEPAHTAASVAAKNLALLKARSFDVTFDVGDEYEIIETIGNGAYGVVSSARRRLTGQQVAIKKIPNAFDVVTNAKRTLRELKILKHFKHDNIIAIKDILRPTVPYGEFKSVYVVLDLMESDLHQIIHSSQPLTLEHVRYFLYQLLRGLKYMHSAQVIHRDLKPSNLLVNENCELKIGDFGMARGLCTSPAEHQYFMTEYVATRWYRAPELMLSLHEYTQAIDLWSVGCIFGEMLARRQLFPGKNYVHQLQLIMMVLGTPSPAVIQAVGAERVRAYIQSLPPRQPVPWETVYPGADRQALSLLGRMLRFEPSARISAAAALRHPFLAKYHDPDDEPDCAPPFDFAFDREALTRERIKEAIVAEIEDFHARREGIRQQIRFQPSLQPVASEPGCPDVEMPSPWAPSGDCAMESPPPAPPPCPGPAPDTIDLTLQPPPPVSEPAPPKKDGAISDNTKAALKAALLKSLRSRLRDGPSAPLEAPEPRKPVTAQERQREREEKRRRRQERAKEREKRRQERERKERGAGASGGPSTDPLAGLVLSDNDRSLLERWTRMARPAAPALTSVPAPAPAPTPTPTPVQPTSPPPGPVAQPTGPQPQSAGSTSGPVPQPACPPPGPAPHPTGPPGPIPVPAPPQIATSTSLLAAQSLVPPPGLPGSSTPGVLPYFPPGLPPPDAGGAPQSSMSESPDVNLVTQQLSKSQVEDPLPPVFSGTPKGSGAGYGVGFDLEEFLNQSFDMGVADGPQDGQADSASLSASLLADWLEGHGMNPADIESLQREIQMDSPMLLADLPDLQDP
Sequence of UniProt P49760 (whole entry, looked up): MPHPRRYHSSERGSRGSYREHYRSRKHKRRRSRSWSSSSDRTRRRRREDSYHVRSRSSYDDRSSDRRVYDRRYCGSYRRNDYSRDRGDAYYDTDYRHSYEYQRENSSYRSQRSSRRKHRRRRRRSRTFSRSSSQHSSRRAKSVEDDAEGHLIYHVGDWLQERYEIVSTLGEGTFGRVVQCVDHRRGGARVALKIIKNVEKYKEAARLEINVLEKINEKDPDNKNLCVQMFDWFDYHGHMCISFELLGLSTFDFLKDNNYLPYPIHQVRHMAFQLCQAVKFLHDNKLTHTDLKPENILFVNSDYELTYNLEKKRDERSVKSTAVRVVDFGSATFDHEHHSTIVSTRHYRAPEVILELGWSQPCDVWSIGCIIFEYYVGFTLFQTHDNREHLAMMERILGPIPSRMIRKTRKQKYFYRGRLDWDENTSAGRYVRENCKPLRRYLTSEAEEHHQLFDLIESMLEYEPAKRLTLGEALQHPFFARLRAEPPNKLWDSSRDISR
Sequence of UniProt Q9ZPY6 (whole entry, looked up): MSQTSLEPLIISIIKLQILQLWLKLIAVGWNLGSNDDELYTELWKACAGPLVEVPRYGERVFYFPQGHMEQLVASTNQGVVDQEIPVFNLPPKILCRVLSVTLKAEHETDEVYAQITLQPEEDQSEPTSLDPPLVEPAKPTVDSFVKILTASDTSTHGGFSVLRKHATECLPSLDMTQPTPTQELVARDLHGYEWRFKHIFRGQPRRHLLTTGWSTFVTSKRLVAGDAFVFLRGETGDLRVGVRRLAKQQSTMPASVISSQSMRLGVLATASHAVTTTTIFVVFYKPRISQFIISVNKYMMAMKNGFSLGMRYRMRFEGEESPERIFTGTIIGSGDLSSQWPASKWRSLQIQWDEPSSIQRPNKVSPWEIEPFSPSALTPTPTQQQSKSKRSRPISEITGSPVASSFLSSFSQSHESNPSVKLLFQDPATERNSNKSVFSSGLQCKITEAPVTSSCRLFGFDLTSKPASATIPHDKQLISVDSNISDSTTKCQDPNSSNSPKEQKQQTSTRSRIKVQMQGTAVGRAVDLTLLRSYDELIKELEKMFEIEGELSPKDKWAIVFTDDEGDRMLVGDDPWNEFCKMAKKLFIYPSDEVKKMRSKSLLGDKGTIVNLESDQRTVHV
Sequence of UniProt Q93WC4 (whole entry, looked up): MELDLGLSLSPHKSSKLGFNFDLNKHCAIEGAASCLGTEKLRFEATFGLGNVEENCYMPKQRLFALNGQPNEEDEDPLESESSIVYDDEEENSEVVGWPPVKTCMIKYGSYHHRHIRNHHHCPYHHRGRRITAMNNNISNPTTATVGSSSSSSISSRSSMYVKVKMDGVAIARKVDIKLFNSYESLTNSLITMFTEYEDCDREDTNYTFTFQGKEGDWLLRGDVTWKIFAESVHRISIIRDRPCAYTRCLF
Sequence of UniProt Q13464 (whole entry, looked up): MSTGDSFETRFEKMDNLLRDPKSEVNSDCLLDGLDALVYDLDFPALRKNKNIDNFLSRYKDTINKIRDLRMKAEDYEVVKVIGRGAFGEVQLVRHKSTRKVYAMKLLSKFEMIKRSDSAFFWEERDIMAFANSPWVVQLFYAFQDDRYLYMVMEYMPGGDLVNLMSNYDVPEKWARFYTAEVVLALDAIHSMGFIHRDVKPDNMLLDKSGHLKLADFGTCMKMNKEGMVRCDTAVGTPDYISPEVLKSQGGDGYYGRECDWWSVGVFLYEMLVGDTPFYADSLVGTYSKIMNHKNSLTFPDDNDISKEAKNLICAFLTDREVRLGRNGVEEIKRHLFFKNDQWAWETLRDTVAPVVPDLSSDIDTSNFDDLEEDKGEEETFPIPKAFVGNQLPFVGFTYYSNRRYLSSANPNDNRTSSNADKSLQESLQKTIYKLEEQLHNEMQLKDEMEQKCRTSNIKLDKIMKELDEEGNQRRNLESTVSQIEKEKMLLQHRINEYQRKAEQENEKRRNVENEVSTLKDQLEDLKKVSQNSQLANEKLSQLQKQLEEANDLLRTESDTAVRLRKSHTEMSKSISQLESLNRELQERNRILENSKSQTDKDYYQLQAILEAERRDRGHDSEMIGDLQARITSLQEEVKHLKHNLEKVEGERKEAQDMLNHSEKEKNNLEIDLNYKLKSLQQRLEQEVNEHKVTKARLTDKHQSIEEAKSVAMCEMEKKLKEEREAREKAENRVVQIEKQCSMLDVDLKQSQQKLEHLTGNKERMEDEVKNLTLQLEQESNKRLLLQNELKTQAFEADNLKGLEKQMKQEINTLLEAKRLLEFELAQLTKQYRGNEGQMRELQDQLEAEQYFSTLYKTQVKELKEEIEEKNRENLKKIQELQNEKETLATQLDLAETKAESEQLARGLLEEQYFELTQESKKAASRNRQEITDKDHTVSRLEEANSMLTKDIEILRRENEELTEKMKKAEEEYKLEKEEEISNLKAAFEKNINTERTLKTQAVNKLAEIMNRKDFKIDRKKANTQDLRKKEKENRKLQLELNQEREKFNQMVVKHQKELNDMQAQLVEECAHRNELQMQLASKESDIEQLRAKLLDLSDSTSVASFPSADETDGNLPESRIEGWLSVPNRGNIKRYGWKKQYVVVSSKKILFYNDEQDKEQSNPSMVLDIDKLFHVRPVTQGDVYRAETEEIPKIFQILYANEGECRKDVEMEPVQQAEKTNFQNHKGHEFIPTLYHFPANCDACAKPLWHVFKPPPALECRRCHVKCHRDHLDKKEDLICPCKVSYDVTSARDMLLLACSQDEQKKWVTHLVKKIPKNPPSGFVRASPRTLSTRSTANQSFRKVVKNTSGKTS
Sequence of UniProt Q00535 (whole entry, looked up): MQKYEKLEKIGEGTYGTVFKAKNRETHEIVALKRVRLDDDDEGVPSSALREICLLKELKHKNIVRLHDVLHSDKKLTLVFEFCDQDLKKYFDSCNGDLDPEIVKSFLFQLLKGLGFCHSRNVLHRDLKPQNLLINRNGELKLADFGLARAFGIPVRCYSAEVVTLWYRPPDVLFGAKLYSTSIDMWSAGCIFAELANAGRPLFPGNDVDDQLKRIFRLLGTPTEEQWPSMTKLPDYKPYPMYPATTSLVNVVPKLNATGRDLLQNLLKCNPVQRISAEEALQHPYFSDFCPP
Sequence of UniProt Q9C5X0 (whole entry, looked up): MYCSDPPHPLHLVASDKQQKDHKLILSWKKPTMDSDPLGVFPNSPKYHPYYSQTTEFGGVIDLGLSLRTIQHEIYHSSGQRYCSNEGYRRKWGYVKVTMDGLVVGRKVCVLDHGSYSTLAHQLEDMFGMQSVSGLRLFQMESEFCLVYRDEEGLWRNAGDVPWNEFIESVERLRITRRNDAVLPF

Block 1
SMILES: CO[C@@H](C)c1c(Nc2ccc([C@H](N(C)C(=O)C3CCS(=O)(=O)CC3)C(F)(F)F)cc2)cnc2cc(Cl)nn12
Technique: competition with immobilised ligand
Concentration: 1 µM
Serine/threonine-protein kinase 38 (STK38, Homo sapiens, UniProt Q15208); cell-free assay — remaining binding: 83%.
Casein kinase II subunit alpha (CSNK2A1, Homo sapiens, UniProt P68400); cell-free assay — remaining binding: 100%.
Serine/threonine-protein kinase DCLK2 (DCLK2, Homo sapiens, UniProt Q8N568); cell-free assay — remaining binding: 90%.
For Cyclin-dependent kinase 15 (CDK15, Homo sapiens, UniProt Q96Q40); cell-free assay: remaining binding read 74%.
The remaining binding was 100% (Serine/threonine-protein kinase Nek2 (NEK2, Homo sapiens, UniProt P51955); cell-free assay).
Dual specificity protein kinase CLK2 (CLK2, Homo sapiens, UniProt P49760); cell-free assay — remaining binding: 100%.
It gave 73% for remaining binding (Mitogen-activated protein kinase kinase kinase 3 (MAP3K3, Homo sapiens, UniProt Q99759); cell-free assay).
Receptor-type tyrosine-protein kinase FLT3 (FLT3, Homo sapiens, UniProt P36888, N841I); binding — remaining binding: 23%.
Rho-associated protein kinase 1 (ROCK1, Homo sapiens, UniProt Q13464); cell-free assay — remaining binding: 100%.
For Mitogen-activated protein kinase 13 (MAPK13, Homo sapiens, UniProt O15264); cell-free assay: remaining binding read 100%.
The remaining binding was 100% (Homeodomain-interacting protein kinase 2 (HIPK2, Homo sapiens, UniProt Q9H2X6); cell-free assay).
Cyclin-dependent kinase 5 (CDK5, Homo sapiens, UniProt Q00535); cell-free assay — remaining binding: 96%.
The remaining binding was 92% (Mitogen-activated protein kinase 7 (MAPK7, Homo sapiens, UniProt Q13164); cell-free assay).
For Serine/threonine-protein kinase/endoribonuclease IRE1 (ERN1, Homo sapiens, UniProt O75460); cell-free assay: remaining binding read 91%.
It gave 100% for remaining binding (Phosphatidylinositol 4-phosphate 5-kinase type-1 alpha (PIP5K1A, Homo sapiens, UniProt Q99755); cell-free assay).
For Inhibitor of nuclear factor kappa-B kinase subunit beta (IKBKB, Homo sapiens, UniProt O14920); cell-free assay: remaining binding read 100%.
The remaining binding was 98% (Mitogen-activated protein kinase 12 (MAPK12, Homo sapiens, UniProt P53778); cell-free assay).

Block 2
Target: Prothrombin, mature alpha-thrombin (F2, Homo sapiens, UniProt P00734)
Technique: aptamer microarray, sandwich
Form: DNA with 2'F-ANA
Matrix: in vitro
Concentration: 200 nM
Notes: whole 15-mer aptamer, many near background
Together with: Cy3 exosite-II aptamer, 400 nM
Reading: higher = stronger binding
Oligonucleotide: GGTTGGTGTGGTTGG
Under “mean fluorescence intensity”, `2'F-ANA at 2 4 6 8 9 10 11 14` is recorded as 65.3 a.u.
Under “mean fluorescence intensity”, `2'F-ANA at 1 6 8 10 11 14` is recorded as 62.8 a.u.
Under “mean fluorescence intensity”, `2'F-ANA at 2 5 6 7 9 10 11 13 14` is recorded as 47.5 a.u.
`2'F-ANA at 3 4 6 8 9 10 12 15`: “mean fluorescence intensity” 283 a.u.
`2'F-ANA at 1 2 3 4 8 12 15`: “mean fluorescence intensity” 493 a.u.
For `2'F-ANA at 4 7 8 9 10 11 14 15`, “mean fluorescence intensity” read 276 a.u.
`2'F-ANA at 1 3 5 7 8 10 11 12` — result for “mean fluorescence intensity”: 47.2 a.u.
For `2'F-ANA at 3 4 7 10 11 13 14 15`, “mean fluorescence intensity” read 180 a.u.

Block 3
Sequence: B1 (IAA16)
Technique: two-hybrid
Reading: higher = firmer interaction
B1: IAA16 (Arabidopsis thaliana, UniProt O24407); chain MINFEATELRLGLPGGNHGGEMAGKNNGKRGFSETVDLKLNLSSTAMDSVSKVDLENMKEKVVKPPAKAQVVGWPPVRSFRKNVMSGQKPTTGDATEGNDKTSGSSGATSSASACATVAYVKVSMDGAPYLRKIDLKLYKTYQDLSNALSKMFSSFTIGNYGPQGMKDFMNESKLIDLLNGSDYVPTYEDKDGDWMLVGDVPWEMFVDSCKRIRIMKGSEAIGLAPRALEKCKNRS
The positive tests was 0 (ARF14 497-605 (Arabidopsis thaliana, UniProt Q9LQE8); relative to: out of 4 tests).
For ARF10 575-693 (Arabidopsis thaliana, UniProt Q9SKN5); relative to: out of 4 tests: positive tests read 0.
The positive tests was 0 (ARF11 500-622 (Arabidopsis thaliana, UniProt Q9ZPY6); relative to: out of 4 tests).
It gave 1 for positive tests (IAA29 (Arabidopsis thaliana, UniProt Q93WC4); relative to: out of 4 tests).
For ARF2 727-859 (Arabidopsis thaliana, UniProt Q94JM3); relative to: out of 2 tests: positive tests read 0.
For IAA34 (Arabidopsis thaliana, UniProt Q9C5X0); relative to: out of 4 tests: positive tests read 3.
It gave 0 for positive tests (ETT (Arabidopsis thaliana, UniProt O23661); relative to: out of 4 tests).

Block 4
Host: mouse
Matrix: microsomes or S9
Concentration: 2 µM
Time: 0.5 h
`Cc1ccccc1S(=O)(=O)Nc1nc2ccccc2nc1NC(c1ccccc1)c1nccn1C` (stereo not shown) gave a remaining compound of 34.2%.
With `CCc1ncc(CN(C)c2ccc(-n3ccc(C)n3)nn2)s1` the remaining compound was 0.687%.
`Cc1cc(=O)[nH]c(SCC(=O)c2cc(C)n(CC3CCCO3)c2C)c1C#N` (stereo not shown) gave a remaining compound of 8.34%.

Block 5
Cell line: mouse MPNST tumor cells
Technique: high-content nuclear imaging
Refers to: cell number
Concentration: 10 µM
Time: 12 h
Notes: mean of 2 replicates
Relative to: plate mean
Reading: higher = more cells
The nuclei count of `O=C1NC(=O)c2c1c(-c1ccccc1)cc1[nH]c3ccc(O)cc3c21` is reported as -2.45 z-score.
With `CN(C)CCCN1c2ccccc2Sc2ccc(Cl)cc21` the nuclei count was -7 z-score.
`COc1cc(C(=O)NC2CCCNC2)cc(OC)c1OC` (stereo not shown) gave a nuclei count of 1.3 z-score.

Further values, each from its own experiment
For `CC(C)n1cnc(-c2ccc(F)cc2)c1-c1ncc(C(=O)Nc2ccc(N3CCN(C)CC3)cc2)[nH]1`, “patients with weight decreased TEAE” read 0% (phase 2a clinical trial; patients with idiopathic pulmonary fibrosis; 60 mg once daily).
`CC(C)S(=O)(=O)c1cc2c(Nc3ccc4sc(C5CCCC5)nc4c3)ccnc2cc1OCCO` has an EC50 of 159 nM (HT-29; necroptosis; together with: TNF-α).

Excerpt of the above (block 5):
The nuclei count of `O=C1NC(=O)c2c1c(-c1ccccc1)cc1[nH]c3ccc(O)cc3c21` is reported as -2.45 z-score.
With `CN(C)CCCN1c2ccccc2Sc2ccc(Cl)cc21` the nuclei count was -7 z-score.
`COc1cc(C(=O)NC2CCCNC2)cc(OC)c1OC` (stereo not shown) gave a nuclei count of 1.3 z-score.
